# Assay results from different studies.
# A part holds a random share of what one study measured.

# Set 1
# Target: RNA binding protein fox-1 homolog 2, RRM domain, GST-SBP tag (RBFOX2, Homo sapiens, UniProt O43251-10, residues 100-194)
# Technique: RNA Bind-n-Seq
# Form: RNA
# Medium: in vitro
# Concentration: 365 nM
# Notes: natural RNA segment, single round, ends assumed
# Relative to: no-protein control
# Reading: higher = stronger binding
Strand,RBNS enrichment (R)
GGGAGUUCUACAGUCCGACGAUCAGGGAUGCUGAUUGAUAUUUCACAUUGUAUGAAAUACCAUGUUUGAAACUCAUAGCAAUAAUGCUAUGCUGUUGUGAUCCCUCUCAAGUUCUGCAUUUAAAAUAUAUUUUUGGAAUUCUCGGGUGCCAA,0.69
GGGAGUUCUACAGUCCGACGAUCCCUACCCAGGGUCACCCAACACACUCUGCCUUGAGCCUCUCCUCAGGGUCUAUUCCUUGCGUGGAUUAUGUGGCCGUAGCAUGUUACAGUUCAAACAUGUCUCCACUACCUGGAAUUCUCGGGUGCCAA,6.84
GGGAGUUCUACAGUCCGACGAUCUACCAGUGGACUGUUAGAAAGUAUUUCAGAUACGAGCAUCUUACAGGGCAUUCCAUCCCUAGUUCUCACAGUGAACACCUGCCUCCUCUCUCUCCUGAGAGCAAGCAUUUUGGAAUUCUCGGGUGCCAA,0.368
GGGAGUUCUACAGUCCGACGAUCUUUUUUGGCUAUAAAUUCGUACUUGAUAAGCUAUGUUAUUUCUUUGUGUAAUUUAAUAGUAGCAUUCUGGAGUAGAUUCUUUUUUUGUAUUCUGGCCUUGGAAUACUUUAUGGAAUUCUCGGGUGCCAA,1.24

# Set 2
# Target: Cyclic AMP-dependent transcription factor ATF-1 (ATF1, Homo sapiens, UniProt P18846, residues 1-271, full length assumed)
# Technique: protein-binding microarray
# Form: double-stranded DNA, one strand shown
# Medium: in vitro
# Concentration: not given
# Notes: k-mer, scored over probes, only values ≥0.25
# Reading: higher = stronger binding
# Target sequence (chain): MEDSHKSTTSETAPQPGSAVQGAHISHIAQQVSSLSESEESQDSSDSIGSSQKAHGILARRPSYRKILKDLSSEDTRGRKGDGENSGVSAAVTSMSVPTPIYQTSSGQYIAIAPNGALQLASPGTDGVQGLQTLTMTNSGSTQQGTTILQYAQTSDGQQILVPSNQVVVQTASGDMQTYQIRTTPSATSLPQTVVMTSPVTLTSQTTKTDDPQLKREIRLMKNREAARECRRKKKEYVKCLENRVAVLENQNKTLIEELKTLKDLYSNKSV
Strand,E-score
TAGATGA,0.278
ACTGACG,0.39
CATAACG,0.258
GCATGAC,0.366

# Set 3
# Target: Interferon regulatory factor 3, full length, phosphomimetic (IRF3, Homo sapiens, UniProt Q14653, residues 1-427, S386D/S396D/S398D/S402D/T404D/S405D)
# Technique: protein-binding microarray
# Form: double-stranded DNA, one strand shown
# Medium: in vitro
# Concentration: 2540 nM top
# Notes: 60-bp whole probe
# Added: salmon DNA 0.4 mg/ml
# Relative to: random background probes
# Reading: higher = stronger binding
# All sequences stand within: GCCTAGCAC … GTCTTGATTCGCTTGACGCTGCTG
# Residues (chain): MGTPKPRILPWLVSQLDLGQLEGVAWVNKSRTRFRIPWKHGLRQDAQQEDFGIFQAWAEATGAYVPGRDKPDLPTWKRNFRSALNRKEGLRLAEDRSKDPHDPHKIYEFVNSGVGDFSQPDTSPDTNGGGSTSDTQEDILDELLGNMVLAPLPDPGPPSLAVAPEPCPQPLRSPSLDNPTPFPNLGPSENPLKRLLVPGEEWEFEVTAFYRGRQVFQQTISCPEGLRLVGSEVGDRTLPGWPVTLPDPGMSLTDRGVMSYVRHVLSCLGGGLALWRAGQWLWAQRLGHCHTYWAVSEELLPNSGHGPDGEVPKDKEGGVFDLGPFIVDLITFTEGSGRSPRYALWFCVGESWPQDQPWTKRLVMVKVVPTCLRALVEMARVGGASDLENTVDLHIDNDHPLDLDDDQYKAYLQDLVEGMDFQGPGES
Strand,fitted relative affinity
CACGGACTGGGGACTGGGGACGTGCTA,-0.932 z-score
CAGCATCTGCAACATCTACAAGTGCTA,-0.394 z-score
TATGTTCACTATTTAAGACCGTGCTAG,1.11 z-score
TTAGGTTTCGGTCTGGGTTAGTGCTAG,6.91 z-score
CTCTGTCTAAAATTGTTAAAGTGCTAG,-0.0373 z-score
TTAGGATTCGGGACTGGGTTAGTGCTA,0.407 z-score

# Further values, each from its own experiment
Molecule,target,test,test system,setting,scale,measurement,result
"PhoQ, residues 284 288 289 292 302 303 SIHLQL","PhoP, residues 12 14 15 18 19 QYCSL (Escherichia coli, UniProt P23836)","Sort-seq, item: YFP reporter",E. coli,"PhoQ-PhoP variant library, added: 10 µM Mg2+","relative to: high Mg2+ state, higher = stronger signaling",fold induction,5.31

# Some of these lines once more (set 3):
Strand,fitted relative affinity
CACGGACTGGGGACTGGGGACGTGCTA,-0.932 z-score
CAGCATCTGCAACATCTACAAGTGCTA,-0.394 z-score
